Experimental data collected from several papers.
Each numbered part is a random draw from the data of one study; scales do not carry over between parts.

Series 1
Target: Centromere-binding protein 1, full length, His-tagged (CBF1, Saccharomyces cerevisiae, UniProt P17106, residues 1-351)
Chain of UniProt P17106 (whole entry, looked up): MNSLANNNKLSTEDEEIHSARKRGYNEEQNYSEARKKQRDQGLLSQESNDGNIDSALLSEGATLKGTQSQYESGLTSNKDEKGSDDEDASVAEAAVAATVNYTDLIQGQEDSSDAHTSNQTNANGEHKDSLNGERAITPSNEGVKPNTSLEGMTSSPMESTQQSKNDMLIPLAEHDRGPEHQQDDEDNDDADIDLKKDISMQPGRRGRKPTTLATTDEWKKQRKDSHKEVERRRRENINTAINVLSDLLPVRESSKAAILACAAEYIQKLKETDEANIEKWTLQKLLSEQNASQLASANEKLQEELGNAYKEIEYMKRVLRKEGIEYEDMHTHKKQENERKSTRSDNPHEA
Technique: competition protein-binding microarray
Form: double-stranded DNA, one strand shown
Matrix: in vitro
Tested at: 2 µM
Notes: whole 60-bp probe, lowest competitor level
With: Pho4 competitor, 0.05 µM
Direction: higher = stronger binding
Constant ends, left off below: … GTCTTGATTCGCTTGACGCTGCTG
| Sequence | fluorescence intensity [a.u.] |
| --- | --- |
| GTCTTGTCTCATTTTCACGTGTTATTCCCCACTTCA | 943 |
| TTCCAGGAATAAAAGACCGTGCCAGTAATTTCAAGT | 96 |
| TGCTAGAATACATCGCACGGCTCGCGGAAAGCAACC | 56.6 |
| TCTAACCAATTGTTCCCCGTGAGATGCTTTCTCTGA | 96.8 |
| ATTTGAAGCTCCAATCACGTGATGGAAAGCTGTAAG | 9730 |
| GAGCAATCATACCGTCACGTTCCATCTCACCGAATC | 288 |
| CGGGGTTAAGTTTGTTCCGTGGGTGGCTTGCAGCAG | 59.4 |
| CTTCTGTAAATTTGATATGTGGGTGGACGCGCCCCG | 86.1 |
| CTCAGGTAGACGGTGCTCGTGTCGGGACAATTTTAA | 74.2 |
| CGTCCTAGTGATTGGAAAGTGGGTGCCATGAGGAAG | 76.2 |
| TTTTTAATTTCTTATCATGCTCAATGTCAACAACTT | 91.6 |
| AAATTACTAAGTTGCCATGTGGGTGACGCCGTATGA | 100 |
| CTAACGAAGGTTTTTCACGTGGAGTACAAGCCAAGT | 527 |
| AAATTACTAAGTTGTCACGCTACTTACCCCGTATGA | 208 |
| CGGGGTTAAGTTTGACTTGTGGGTGGCTTGCAGCAG | 74.5 |
| CTTTCCCGATCTTTTCACGTGCATTTAGCACATTTG | 931 |
| GCATTAACGACAAAGCACGTGACGAATTCCCTTCAA | 6640 |
| AAGGCGTCTTGTCACCACGTCTTCCAGTTATGGTCT | 61.5 |
| CTGCGCATACGAATACACATGAGTGCCATAAAACAA | 97.9 |
| GTCTTGTCTCATTGCTCGGTGGGTGTCCCCACTTCA | 92.6 |
| CTTTCCCGATCTTGAAGGGTGGGTGTAGCACATTTG | 70.5 |
| CATACGCGTTCGCTTCACGTGATGGTCCTTTTCCAT | 2690 |
| GTATTTTAACCACTGCTCGTGAAGACCACTCCAGTG | 103 |
| ACAGACCCCGAAGGAGCCGTGATGGACTTTACACCA | 60.1 |
| AAAGCGGTAATTTTTCACGTGCAGTCAAATATCTAT | 1370 |

Series 2
Target: Histone acetyltransferase KAT6A, winged helix 2, GST fusion (KAT6A, Homo sapiens, UniProt Q92794, residues 85-181)
Technique: protein binding microarray
Form: double-stranded DNA, one strand shown
Matrix: in vitro
Tested at: not given
Notes: 8-mer, flanks averaged, mean of 2 arrays, mostly near background
Relative to: not given
Direction: higher = stronger binding
Construct (chain): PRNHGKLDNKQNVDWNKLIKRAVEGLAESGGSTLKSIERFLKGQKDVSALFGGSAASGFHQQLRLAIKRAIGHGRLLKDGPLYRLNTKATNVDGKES
| Sequence | E-score |
| --- | --- |
| TGCGGCCA | 0.126 |
| GAGAAGAA | 0.00963 |
| AGGCGGAT | 0.19 |
| AGGTGCCG | -0.0139 |
| ATTCATTA | -0.0242 |
| AGAGTAAT | 0.0697 |
| GTGAATTA | 0.114 |
| GTGCTTAA | 0.0647 |
| CCTTACCG | 0.0223 |
| CGGGCTGA | 0.167 |
| CGTCCACA | -0.015 |
| GGGCCAGA | 0.14 |
| GAATATCA | -0.0561 |
| ATGCCCCG | 0.0486 |
| CAAGGGCC | 0.0644 |
| TGCCCCAA | 0.0128 |
| GCAATCGA | -0.00333 |
| TCGACGAA | 0.165 |
| AACATCTT | -0.0471 |
| TCGACAAA | 0.0672 |

Series 3
Target: RNA binding protein fox-1 homolog 2, RRM domain, GST-SBP tag (RBFOX2, Homo sapiens, UniProt O43251-10, residues 100-194)
Technique: RNA Bind-n-Seq
Form: RNA
Matrix: in vitro
Tested at: 365 nM
Notes: natural RNA segment, single round, ends assumed
Relative to: no-protein control
Direction: higher = stronger binding
Constant ends, left off below: GGGAGUUCUACAGUCCGACGAUC … UGGAAUUCUCGGGUGCCAA
Residues (chain): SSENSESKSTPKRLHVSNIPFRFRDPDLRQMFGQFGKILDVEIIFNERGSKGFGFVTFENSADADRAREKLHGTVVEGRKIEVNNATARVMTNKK
| Sequence | RBNS enrichment (R) |
| --- | --- |
| UCAUACAGUGAGGGUGUUAAGUCAGGUAGCUGGAGACUUCCCAUCGCCUCUGACACUUUUGGAGGUGAUAUGAUACAGCCCCCGACCAAACCAGGCUUUGUGGGGGGUGA | 0.363 |
| GGCUGCGGGCCAGUGCCUGCGCAUGUUUGUGCCUCUCCCCUCUCCUUGGGCAGGCCCUGGGUAGGAAGCUGGGCUCCUCCUCAAAGGGGAAGAGAGAGAUAGGGUAUAGG | 0.731 |
| CCCUCAGUGGAGAAGAUGAGAAGAACAUCUUGGGGUGCUUUUCUGUUAUAGGGUCCCCUCCCUGACGCCUAAAAUAUUUGUAACUACACCUAAAAGGGUUUUGCUUCGGG | 0.416 |
| CUGAUGCACCACAGGCCCUCCCUACUGGAAGUGGGAACUUCAAAUGGAAAUUGGAGCCAUCUUUUAUCCCAGAAGCCUUUGCUGCUGCCAGGGCAAGUGGGCUGGUGUGG | 0.347 |
| GAGGCUGCUCCGUCCUUGCCAGCUGCUCCCUAGUCCUGAGUGGUCCUUGGUGAGGAGCAGCAAGAUGCAGCGAGUUGAGUGAGACUUAGGGCUUUUGAUUUUUUUUUUUU | 0.415 |
| UUAUUCCGGCAGCACAUAAACAGAUGACUCAUGCUGUGAGAGGUAAGACAGUGUGUAGCAGCCCUGAGCUUUUCAAUUCUACUGCUCUUUCUCUUCCCGCAGACAGUCCC | 0.483 |
| CAAAUACACAUUUUAUGCUAGAAAAAGUGUACUUAAUAGGAAUUAUUUUUGUUUUCCUAAAGAAAAUGCCUAAUAUAGAGAAAACAAUACAUAUCUUUACAGCUUAUUUG | 6.14 |
| GUUGUCACAGUUAGUCCGGAAAUGACUGAAACCAGGCAUUCUCCCGGACCUCAGCGUGGGGGAGCCUCCAGGCAGACGCUGGGUAUGGAGCUGUGGUGUGGUCUGUCCUG | 0.338 |
| UAUAAUUCUUUGGUGAAUAGGUAUGCCUAGGAACAACUGGUGGUUAGUCUGUGUCCUGUGUGGAACUGUAAGGAUGGAGCUGCCCCUGAUAGGCUCUGUGGAGUUGGCUU | 0.826 |
| AAUGCAAAGAUCUUGCCCCUGCCAGUGGCAAGUGCCGACAAACCAAGUGCCUGUAGGCUCCUGGGACUCUGCAGCUAGGUAAAGAGUUCUAAGUUCAUCUGGCCCACGUG | 0.773 |
| CACUGCUGCUGGCUCCCGAGGACAGUGGGACUUUAGCAAGGAAGUGCAGCCGAGGGGUAAAGAGCCCUCUGGUUCAUUGCCUGAUCGGCUUUGAGAGAGGGUUUGGAGGG | 0.83 |
| GGAAGACAACAGAAACACAAGGAGGCGGCUGUGGCCGGGCUGGACUGUGCUGGGGUUUGUUGUGAUGGCCACUCGGUGACCUGGCGGUCCCUACGCAAUAGCAGCUGCCU | 0.512 |

Series 4
Target: Hepatocyte nuclear factor 3-alpha (Foxa1, Mus musculus, UniProt P35582, residues 1-468, full length assumed)
Technique: EMSA with sequencing
Form: double-stranded DNA, one strand shown
Matrix: in vitro
Tested at: 10 and 20 nM
Notes: whole designed probe, mean of two concentrations, ends assumed
Relative to: negative control set to 0
Direction: higher = stronger binding
Constant ends, left off below: GTGAGCGGTGCCCATTGATGGGGAAC … TTTCACTGGGATCGTGGGGAC
Residues (chain): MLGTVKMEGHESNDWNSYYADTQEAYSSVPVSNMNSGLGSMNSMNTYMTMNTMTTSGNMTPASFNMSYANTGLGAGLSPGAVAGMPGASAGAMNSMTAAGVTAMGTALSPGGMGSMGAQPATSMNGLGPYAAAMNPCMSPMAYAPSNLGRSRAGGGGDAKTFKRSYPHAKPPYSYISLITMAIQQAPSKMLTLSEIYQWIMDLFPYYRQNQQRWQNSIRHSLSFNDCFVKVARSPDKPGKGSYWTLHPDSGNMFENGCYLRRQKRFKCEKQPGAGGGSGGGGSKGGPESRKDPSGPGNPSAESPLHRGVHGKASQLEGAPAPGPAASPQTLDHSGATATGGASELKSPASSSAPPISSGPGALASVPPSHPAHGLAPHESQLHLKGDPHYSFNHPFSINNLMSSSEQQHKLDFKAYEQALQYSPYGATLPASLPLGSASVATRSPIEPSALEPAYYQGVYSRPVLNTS
| Sequence | normalised bound fraction [ratio] |
| --- | --- |
| CCTGTTCTGTAAAAGTGTTTGGATTGAGAGAACACGTACAAAATGACAGGATAATAGCAGGTAGATAATATTCATCTTTTTCTCCCAGGTTAATGTAAACAGGGACCTGATTTTACAAGATTTTATAGGCCATGTTTTACATACGTTGATTTTATCTTAATATGAATAAAACTTAACATATGTGGAGACATTA | 0.21 |
| CCCCTCTTCATCTTCCTTGCCCCACCAGCTCACCTTCCCGGGTTATTTGCAGATAGGAAAATAAATAAAGCCGGCATTCGTTAACCCTCTTCTGGCGCAAACTGCTGTTTGCTCTGGATGAATCATGGTCCTTTGGCGACGCCAGGCTCCGGGAGAGCAAAGCACCGTGTCAGGGCCATGATCCGGGGTGGCC | 0.321 |
| ATCTTCCCCCTCTTCCTTGCCCCACCAGCTCACCTACGGGGGTTATTTGCAGATAGGAAAATAAATAAAGCCGGCATTCGTTAACGCAGTTCTGGCGCAAACTGCTGTTTGCTCTGCATGAATCATGGTCCTTACGCGAGGCGTGGCTCCGGGAGAGCAAAGCACCGTGTCAGGCGCATGATCCGGGGTGGCC | 0.356 |
| GCTCGAGGCTGGGCGGACAGCTCCCTTTCTCCCGGAGTTGACGTCTGATGTGGGTTATAAATCCCGCTGTGTAAACGTCTGTCCACTCACTGGGCAATCTTTCCTACACCCGCCCTCCCCGGGGAGCTCCAGGGTGCAGGGCGTGGACCTGCCCAGCCCTTCAGGGCCAGAAGGCACGGTGGAGCCGGTCTGC | 0.0275 |
| TTAACACTGTTCACTTGTATCAACATTTTACTACTTTGAGTAAAGTGTAAAAACCTATAGGTTCCTTTACCTCCTCCTTATAATTCTCTTAAATATTTACTCACATACTTTGAGAACCATATCACACAGTATTATAATTTTTGCTTTGACCATCAAATATAATTTAGAAAATCCAACAGGATAGTTTATATTT | 0.186 |
| ATCCACGAACCTGGCCCTGTCTGGTAACCACAGTGAACCATCGCAAGATACAGCACTATGTGCCCAGTTGTAATGACTCACGGCTGGAAATGTGTCAACACTGGCACATCCTCAGGGACACGGAAGTGTACTTGTTTTTGGAGAGGGACTAGACCTTCATCCTTGAGGTGAAGAAGATTTTCTCTCCAGGGTG | 0.0549 |
| TCTTTCACTCAAGTGGTATATCCCACAGCCCTAAAGAAGCAAGGGAAATAAGAATTAGAACTAGACATCCCAGGAGACAAAGAATTCAACAAAGCAAACATTAACCAATCCCTTCACTATCACTTCCTGCTTACAGAAAATCTCTCTGGCTCAGGCCGGGCAGTGAGTTCATTTATTTCAACAAAATCAAAGA | 0.362 |
| TTTTTGTTAACACTTAGATATGCCTTCCCTTCTCAAGGAGGATTATCCTATAAACTTAACCTTTGAATTAAAGATATTTATTGACTAACAATGTAATCTGGAAAAACTTTAAAATCTCAACAGAAATTATTTTCTCTTTAAATACTTTATTACTTTTTATTTTACAGCAACTCACATTTATGGCTTAATATGG | 0.0569 |

For quick reference, copied from above (series 3):
| Sequence | RBNS enrichment (R) |
| --- | --- |
| CUGAUGCACCACAGGCCCUCCCUACUGGAAGUGGGAACUUCAAAUGGAAAUUGGAGCCAUCUUUUAUCCCAGAAGCCUUUGCUGCUGCCAGGGCAAGUGGGCUGGUGUGG | 0.347 |
| GAGGCUGCUCCGUCCUUGCCAGCUGCUCCCUAGUCCUGAGUGGUCCUUGGUGAGGAGCAGCAAGAUGCAGCGAGUUGAGUGAGACUUAGGGCUUUUGAUUUUUUUUUUUU | 0.415 |
| UUAUUCCGGCAGCACAUAAACAGAUGACUCAUGCUGUGAGAGGUAAGACAGUGUGUAGCAGCCCUGAGCUUUUCAAUUCUACUGCUCUUUCUCUUCCCGCAGACAGUCCC | 0.483 |
| CAAAUACACAUUUUAUGCUAGAAAAAGUGUACUUAAUAGGAAUUAUUUUUGUUUUCCUAAAGAAAAUGCCUAAUAUAGAGAAAACAAUACAUAUCUUUACAGCUUAUUUG | 6.14 |
| GUUGUCACAGUUAGUCCGGAAAUGACUGAAACCAGGCAUUCUCCCGGACCUCAGCGUGGGGGAGCCUCCAGGCAGACGCUGGGUAUGGAGCUGUGGUGUGGUCUGUCCUG | 0.338 |
| UAUAAUUCUUUGGUGAAUAGGUAUGCCUAGGAACAACUGGUGGUUAGUCUGUGUCCUGUGUGGAACUGUAAGGAUGGAGCUGCCCCUGAUAGGCUCUGUGGAGUUGGCUU | 0.826 |
| AAUGCAAAGAUCUUGCCCCUGCCAGUGGCAAGUGCCGACAAACCAAGUGCCUGUAGGCUCCUGGGACUCUGCAGCUAGGUAAAGAGUUCUAAGUUCAUCUGGCCCACGUG | 0.773 |
| CACUGCUGCUGGCUCCCGAGGACAGUGGGACUUUAGCAAGGAAGUGCAGCCGAGGGGUAAAGAGCCCUCUGGUUCAUUGCCUGAUCGGCUUUGAGAGAGGGUUUGGAGGG | 0.83 |
